Assay results gathered from unrelated publications.
Numbers after ± are the reported error.

SMILES	cell line	assay	test system	setting	scale	quantity	result
Cc1cc(C(C)(C)c2ccc(O)c(C)c2)ccc1O	HepG2 spheroids	annexin V-FITC/PI flow cytometry	–	10 µM, 96 h	–	necrotic cells	38 ± 7.42%
C#Cc1ccc(OCCc2cccc(F)c2)c(C(N)=O)c1	HepG2	–	–	3 (unit not given)	baseline: CC50 glucose over CC50 galactose	selectivity ratio	< 1
O=C1NCN(c2ccccc2)C12CCN(CCCC(c1ccc(F)cc1)c1ccc(F)cc1)CC2	African green monkey cells	–	–	5 days	–	CC50	7 µM
CC(C)(c1ccc(O)cc1)c1ccc(O)cc1	HepG2 spheroids	annexin V-FITC/PI flow cytometry	–	10 µM, 96 h	–	necrotic cells	30.6 ± 4.97%
CNCCCC1c2ccccc2C=Cc2ccccc21	African green monkey cells	–	–	5 days	–	CC50	26.3 µM
CC(=O)N[C@@H](CCCCN)C(=O)N[C@@H](CC(C)C)C(=O)N[C@@H](CC(C)C)C(=O)N[C@@H](CCCCN)C(=O)N[C@@H](CC(C)C)C(=O)N[C@@H](CC(C)C)C(=O)N[C@@H](CCCCN)C(=O)N[C@@H](CCCCN)C(=O)N1CCC[C@H]1C(=O)N[C@@H](CC(C)C)C(=O)N[C@@H](CCCCN)C(=O)N[C@@H](CC(C)C)C(=O)N[C@@H](CC(C)C)C(=O)N[C@@H](CCCCN)C(=O)N[C@@H](CCCCN)C(N)=O	human red blood cells	haemolysis	–	6 h, 37 °C, 5% haematocrit in PBS	–	MHC10	> 160 µM
O=S(=O)(O)c1nc2ccccc2s1	rat hepatoma cells	cell confluency	–	24 h, nominal concentration	baseline: baseline IC10 over IC10	toxic ratio	3.94
NC(=O)C1CN(CCCCC(c2ccc(F)cc2)c2ccc(F)cc2)CCN1CC(=O)Nc1c(Cl)cc(N)cc1Cl (stereo not drawn)	African green monkey cells	–	–	5 days	–	CC50	9.66 µM
CC[C@H](C)[C@H](NC(=O)[C@H](CC(=O)O)NC(=O)[C@@H](NC(=O)[C@H](CC(N)=O)NC(=O)[C@@H]1CCCN1C(=O)[C@@H](NC(=O)[C@H](Cc1ccccc1)NC(=O)CNC(=O)CNC(=O)CNC(=O)[C@H](CC(C)C)NC(=O)[C@H](CCCCN)NC(=O)[C@H](CCCCN)NC(=O)[C@H](CC(C)C)NC(=O)[C@H](CC(C)C)NC(=O)[C@H](CC(C)C)NC(=O)[C@H](CC(C)C)NC(=O)[C@H](CC(C)C)NC(=O)[C@H](CCCCN)NC(=O)[C@H](CCCCN)NC(=O)[C@@H](N)CC(C)C)[C@@H](C)O)[C@@H](C)O)C(=O)N[C@H](C(=O)N[C@H](C(=O)N[C@@H](CCCNC(=N)N)C(=O)N[C@H](C(=O)N[C@H](C(=O)O)[C@@H](C)O)[C@@H](C)O)[C@@H](C)O)[C@@H](C)CC	human red blood cells	–	–	1 h, 37 °C, 10% hemolysis	–	lowest hemolytic concentration	> 256 µg/mL
CCNCc1nc2c(N)nc3ccccc3c2n1CC(C)(C)O	HFF-1	–	–	0.1 µg/mL, 48 h	–	viability	85.5%
c1cc2ccc3cccc4ccc(c1)c2c34	rat hepatoma cells	cell confluency, IncuCyte imaging	–	24 h, nominal concentration	–	IC10	64.4 µM
O=C(NC1CC1)c1cc(-c2ccoc2)ccc1OCCc1cccc(F)c1	HepG2	–	–	3 (unit not given)	baseline: CC50 glucose over CC50 galactose	selectivity ratio	2
Oc1ccc(C2(c3ccc(O)cc3)c3ccccc3-c3ccccc32)cc1	HepG2 spheroids	propidium iodide staining	–	concentration not given, 24 h	–	necrotic cells	decreased
OC[C@@H]1[C@@H](O)[C@H](O)[C@@H](O)CN1CCCCCCNc1cc(-c2cccnn2)cc(C2CC2)c1	A549 expressing ACE2	WST-1	–	25 µM, 3 days	–	viability	100%
Cc1c(CN2CCN(c3cccc(C(F)(F)F)c3)CC2)cc(-c2ccccc2)n1NC(=O)c1ccncc1	African green monkey cells	–	–	5 days	–	CC50	14.3 µM
CC(O)c1ccc(OCCc2cccc(F)c2)c(C(N)=O)c1 (stereo not drawn)	HepG2	–	galactose medium	3 (unit not given)	–	CC50	> 100 µM
CC(C)C[C@H](NC(=O)CN)C(=O)N[C@@H](CCCCN)C(=O)N[C@@H](CCCCN)C(=O)N[C@@H](CC(C)C)C(=O)N[C@@H](CC(C)C)C(=O)N[C@@H](CC(C)C)C(=O)N[C@@H](CC(C)C)C(=O)N[C@@H](CC(C)C)C(=O)N[C@@H](CCCCN)C(=O)N[C@@H](CCCCN)C(=O)N[C@@H](CC(C)C)C(=O)NCC(=O)NCC(=O)NCC(=O)N[C@@H](Cc1ccccc1)C(=O)N[C@@H](CO)C(=O)N[C@@H](CC(C)C)C(=O)N[C@@H](C)C(=O)N1CCC[C@H]1C(=O)N[C@@H](Cc1ccc(O)cc1)C(=O)N[C@@H](C)C(=O)N1CCC[C@H]1C(=O)N[C@@H](C)C(=O)N1CCC[C@H]1C(=O)N[C@H](C(=O)N[C@@H](CC(N)=O)C(=O)O)C(C)C	HEK-293T cells	CCK-8	–	4 h, 37 °C, 10% cell death	–	lowest cytotoxic concentration	64 µg/mL
CN(C(=O)n1cnc(-c2ccc[n+]([O-])c2)c1)C1CCCCC1	COS-7 expressing human FAAH	–	culture supernatant	100 nM, 3 h	–	concentration	0.101 ± 0.0012 µM
O=c1ccc2ccccc2o1	NHEK	mitochondrial reserve capacity, Seahorse	–	concentration not given, 6 h	–	chance response	90.9%
CCn1cc(-c2ccnc3[nH]c(-c4cccc(CN(C)C)c4)cc23)c(-c2ccc(NC(=O)N(C)C)cc2)n1	African green monkey cells	–	–	5 days	–	CC50	9.33 µM
Nc1nc2c(ncn2[C@@H]2O[C@@H]3COP(=O)(O)O[C@H]4[C@@H](O)[C@H](n5cnc6c(=O)[nH]c(N)nc65)O[C@@H]4COP(=O)(O)O[C@H]3[C@H]2O)c(=O)[nH]1	HFF-1	–	–	1 µg/mL	–	viability	89.9%
CN1[C@@H]2CC[C@H]1C[C@@H](OC(c1ccccc1)c1ccccc1)C2	African green monkey cells	–	–	5 days	–	CC50	46.8 µM
CN(CC[C@H](Oc1cccc2ccccc12)c1cccs1)N=O	TK6 expressing CYP2C19	–	–	1 µM, 4 h, without S9	baseline: vehicle	relative survival	70.7%
OCCN1CCN(CCCN2c3ccccc3Sc3ccc(C(F)(F)F)cc32)CC1	African green monkey cells	–	–	5 days	–	CC50	7.76 µM
CC(C)C[C@H](NC(=O)[C@@H](NC(=O)[C@H](CCCCN)NC(=O)[C@H](CCCCN)NC(=O)[C@@H](N)CC(C)C)C(C)C)C(=O)N[C@@H](CCCCN)C(=O)N[C@@H](C)C(=O)N[C@@H](C)C(=O)N[C@@H](C)C(=O)N[C@@H](CCCCN)C(=O)NCCCC[C@H](NC(=O)[C@H](CCCCN)NC(=O)[C@H](C)NC(=O)[C@H](C)NC(=O)[C@H](C)NC(=O)[C@H](CCCCN)NC(=O)[C@H](CC(C)C)NC(=O)[C@@H](NC(=O)[C@H](CCCCN)NC(=O)[C@H](CCCCN)NC(=O)[C@@H](N)CC(C)C)C(C)C)C(=O)NCCCC[C@H](NC(=O)[C@H](CCCCNC(=O)[C@H](CCCCN)NC(=O)[C@H](C)NC(=O)[C@H](C)NC(=O)[C@H](C)NC(=O)[C@H](CCCCN)NC(=O)[C@H](CC(C)C)NC(=O)[C@@H](NC(=O)[C@H](CCCCN)NC(=O)[C@H](CCCCN)NC(=O)[C@@H](N)CC(C)C)C(C)C)NC(=O)[C@H](CCCCN)NC(=O)[C@H](C)NC(=O)[C@H](C)NC(=O)[C@H](C)NC(=O)[C@H](CCCCN)NC(=O)[C@H](CC(C)C)NC(=O)[C@@H](NC(=O)[C@H](CCCCN)NC(=O)[C@H](CCCCN)NC(=O)[C@@H](N)CC(C)C)C(C)C)C(=O)NCCC(=O)O	RAW264.7	crystal violet	–	24 h	–	concentration for 100% cell killing	200 µM
Oc1ccc(C(c2ccc(O)cc2)(C(F)(F)F)C(F)(F)F)cc1	HepG2 spheroids, dissociated	annexin V-FITC/PI flow cytometry	–	10 µM, 96 h	–	early apoptotic cells	5.45 ± 2.29%
CN(C)C(=O)c1cc2cnc(Nc3ccc(N4CCNCC4)cn3)nc2n1C1CCCC1	African green monkey cells	–	–	5 days	–	CC50	38.9 µM
CC(C)C[C@H](NC(=O)[C@H](CCCNC(=N)N)NC(=O)[C@H](CCCNC(=N)N)NC(=O)[C@H](CCCNC(=N)N)NC(=O)[C@@H]1CCCN1C(=O)[C@H](Cc1ccccc1)NC(=O)[C@H](Cc1ccc(O)cc1)NC(=O)[C@H](CCCNC(=N)N)NC(=O)[C@H](Cc1ccc(O)cc1)NC(=O)[C@@H](NC(=O)[C@H](CC(C)C)NC(=O)[C@H](Cc1ccc(O)cc1)NC(=O)[C@H](CCCNC(=N)N)NC(=O)[C@H](Cc1c[nH]cn1)NC(=O)[C@@H]1CCCN1C(=O)[C@H](Cc1c[nH]c2ccccc12)NC(=O)[C@H](Cc1ccc(O)cc1)NC(=O)[C@H](Cc1ccccc1)NC(=O)[C@@H]1CCCN1C(=O)[C@H](CCC(N)=O)NC(=O)[C@H](Cc1ccccc1)NC(=O)[C@@H]1CCCN1C(=O)[C@H](Cc1ccccc1)NC(=O)[C@H](CCCNC(=N)N)NC(=O)[C@H](Cc1c[nH]cn1)NC(=O)[C@H](CC(N)=O)NC(=O)[C@H](CS)NC(=O)[C@H](CCCNC(=N)N)NC(=O)[C@H](CO)NC(=O)[C@@H]1CCCN1C(=O)[C@@H](NC(=O)[C@H](Cc1ccccc1)NC(=O)[C@@H]1CCCN1C(=O)[C@H](CCCNC(=N)N)NC(=O)[C@H](CC(N)=O)NC(=O)[C@@H]1CCCN1C(=O)[C@H](Cc1ccccc1)NC(=O)[C@H](CCCNC(=N)N)NC(=O)[C@@H](N)Cc1ccccc1)C(C)C)[C@@H](C)O)C(=O)N[C@@H](CCC(N)=O)C(=O)N[C@@H](CCCNC(=N)N)C(=O)O	human red blood cells	hemolysis	–	–	–	HC50	2.9 µmol/L
CCCCCCCCCCCC(=O)N[C@H](CCC(=O)NC(CCCC(N)C(=O)O)C(=O)O)C(=O)O (stereo partly drawn)	HFF-1	–	–	10 µg/mL	–	viability	88.4%
COc1cc2c(c(OC)c1OC)-c1ccc(OC)c(=O)cc1[C@@H](NC(C)=O)CC2	human peripheral blood lymphocytes	–	–	0.01 µg/mL, 24 h, without S9	–	cytostasis	7%

Repeated from above:
SMILES	cell line	assay	test system	setting	scale	quantity	result
Nc1nc2c(ncn2[C@@H]2O[C@@H]3COP(=O)(O)O[C@H]4[C@@H](O)[C@H](n5cnc6c(=O)[nH]c(N)nc65)O[C@@H]4COP(=O)(O)O[C@H]3[C@H]2O)c(=O)[nH]1	HFF-1	–	–	1 µg/mL	–	viability	89.9%
NC(=O)C1CN(CCCCC(c2ccc(F)cc2)c2ccc(F)cc2)CCN1CC(=O)Nc1c(Cl)cc(N)cc1Cl (stereo not drawn)	African green monkey cells	–	–	5 days	–	CC50	9.66 µM
Oc1ccc(C(c2ccc(O)cc2)(C(F)(F)F)C(F)(F)F)cc1	HepG2 spheroids, dissociated	annexin V-FITC/PI flow cytometry	–	10 µM, 96 h	–	early apoptotic cells	5.45 ± 2.29%
O=C1NCN(c2ccccc2)C12CCN(CCCC(c1ccc(F)cc1)c1ccc(F)cc1)CC2	African green monkey cells	–	–	5 days	–	CC50	7 µM
